Results pooled from the literature.
A part holds a random share of what one study measured. Positions count from the first letter of the parent shown.

Series 1
Target: CCND2, cyclin fold, Cln2 fusion (human)
Technique: yeast growth competition, sequencing
Medium: yeast
Setting: weak parent motif
Baseline: not given
Direction: higher = stronger binding
Parent: WEE1 docking peptide (human); CTLRQKLIFSPCS
| Variant | normalised enrichment score |
| --- | --- |
| K6A | -0.0744 |
| C12A | -0.149 |
| L3A | 0.201 |
| S13A | -0.0057 |
| P11A | 0.042 |
| I8A | -0.0505 |

Series 2
Target: RING finger protein unkempt homolog, zinc fingers 1-6, GST-SBP tag (UNK, Homo sapiens, UniProt Q9C0B0, residues 30-357)
UniProt Q9C0B0, sequence (30-357, looked up): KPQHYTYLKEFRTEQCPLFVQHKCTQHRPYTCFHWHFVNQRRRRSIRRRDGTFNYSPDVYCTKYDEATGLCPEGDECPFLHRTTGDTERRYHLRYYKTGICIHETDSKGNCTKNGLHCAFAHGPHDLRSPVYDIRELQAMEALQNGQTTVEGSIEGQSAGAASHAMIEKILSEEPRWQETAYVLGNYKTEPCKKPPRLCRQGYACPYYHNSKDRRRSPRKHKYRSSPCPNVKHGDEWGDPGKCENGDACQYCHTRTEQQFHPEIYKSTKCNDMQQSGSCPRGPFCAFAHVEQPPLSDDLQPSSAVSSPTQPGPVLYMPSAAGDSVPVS
Technique: RNA Bind-n-Seq
Molecule type: RNA
Medium: in vitro
Concentration: not given
Setting: RNA with constant flanks, human-mouse chimeric sites, ends assumed
Baseline: input RNA pool
Direction: higher = stronger binding
Constant ends, left off below: GGGAGUUCUACAGUCCGACGAUC … CAACAGAGGAUUGAGCAUCA
| Strand | bound/input enrichment |
| --- | --- |
| UGGCGCCUGCGCUCCCCACUCGUGUUUUUAAGUGUAUAAGAUGUAUAUACAUGUAUUUACAAUUGAGUUUUUGAUUAAUAAUGCUGAAAUGCUACUGGAGAUUAUGAAAAAUGUUUCAAU | 0.21 ratio |
| GGGACUGAUUCAUCCCAAGGACAGGCAACCCCAUUUGAUGCCUGGACUGAUGACAGUAUGUUAGGGCCUAGUCAAAAUGUUGAAGCUGAGUCAAUUCAGGAUGCCAUGAGUAUGGAAGAG | 0.594 ratio |
| ACCUCCCAGGCCUGGGACACCCCACCCCCGCUUUUUGGAAAGUUUUUGGCUUUUUUUUUCCUUCCCCAUACAAAGUGAUUACAGUUUCCCCCGCAAGGGUCUAUCGAAGGGCUUGACGGA | 0.526 ratio |
| AAAGAACUUGCUGAUGAUGAAGAUGAGGACAGUGAUGAUGAUGUUGAACCCAUUUCUGAAUUUCGAUUUGUGCCCAGUGAUAAGUCAGCAUUGGAGGCGAUGUUCACAGCAAUGUGUGAG | 0.326 ratio |
| CUUCGGAAAAAAAAAUUACCUUUUCUGACAGUGCUUUCCCUCCCAUAGAUCCACGUUCAAGCUCAAAGAGCAAAGGCUUUGCACGGAGCUCAAACAUCUGAUGAAGAAAGAUUUCUGAGA | 0.349 ratio |
| AGAAAGCAAAACUUGGAACGAUUUAAGAAAGGAGAUGUAAGAUUCUUGAUUUGCACAGAUGUAGCUGCUAGAGGGAUUGAUAUCCAUGGUGUUCCUUAUGUGAUCAACGUCACCCUGCCU | 0.285 ratio |
| UCUGAGGUACCACUGAAGAGACCUUAAAAGAAUCAUUUUGACGGCUCGUUCGUGCAAGAAUAGUCACUGAUCGGGAAACUGGUUCUUCCAAAGGGUUUGGUUUUGUAGACUUUAAUAGUG | 0.672 ratio |
| AACGUGGAGUUGAGUUCCUUGGCCCGGCUUCCCAGCUUGAAUAAACUCCGGAAGUUGGAGCUUAGUGAUAAUAUAAUUUCUGGAGGCUUGGAAGUCCUGGCAGAGAAAUGUCCAAAUCUU | 4.16 ratio |

Series 3
Target: ABI1, truncated, D143A, DHFR fusion (Arabidopsis thaliana)
Technique: DHFR PCA, deep sequencing
Medium: yeast
Setting: methotrexate growth selection, single substitutions
With: (+)-ABA 2500 µM
Baseline: wild-type fitted maximum
Direction: higher = stronger binding
Parent: PYL1, truncated, DHFR fusion (Arabidopsis thaliana); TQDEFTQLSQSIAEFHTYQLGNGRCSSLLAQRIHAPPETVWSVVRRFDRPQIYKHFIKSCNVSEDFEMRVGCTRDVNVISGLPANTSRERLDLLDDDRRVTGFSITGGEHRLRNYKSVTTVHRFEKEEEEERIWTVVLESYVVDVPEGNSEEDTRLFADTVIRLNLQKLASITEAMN; partner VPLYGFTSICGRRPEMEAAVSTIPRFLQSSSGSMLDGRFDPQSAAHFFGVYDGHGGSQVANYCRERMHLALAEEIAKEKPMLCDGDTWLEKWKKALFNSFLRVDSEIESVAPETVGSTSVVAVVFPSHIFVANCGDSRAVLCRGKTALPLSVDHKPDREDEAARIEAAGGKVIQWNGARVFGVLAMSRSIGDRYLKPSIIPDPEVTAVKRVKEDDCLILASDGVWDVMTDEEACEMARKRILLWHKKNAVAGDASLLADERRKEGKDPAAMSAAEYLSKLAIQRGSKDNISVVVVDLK
| Variant | relative binding score |
| --- | --- |
| E129F | 102% |
| E4L | 99.8% |
| R74F | 3.98% |
| L169Q | -8.43% |
| E38M | 85.9% |
| P37A | 97.4% |
| E128Q | 108% |
| K168A | 95.3% |
| P36R | 98.2% |
| A175K | 95.4% |

Other studies, line by line
| Substance | target | test | test system | conditions | scale | quantity | value |
| --- | --- | --- | --- | --- | --- | --- | --- |
| PhoQ, residues 284 288 289 292 302 303 MLMVEA | PhoP, residues 12 14 15 18 19 HEGLL (Escherichia coli, UniProt P23836) | Sort-seq, item: YFP reporter | E. coli | PhoQ-PhoP variant library, with: 10 µM Mg2+ | baseline: high Mg2+ state, higher = stronger signaling | fold induction | 10.4 |

A few entries again (series 1):
| Variant | normalised enrichment score |
| --- | --- |
| K6A | -0.0744 |
| S13A | -0.0057 |
